Measurements collected from several papers.
Target: Bone morphogenetic protein receptor type-2 (BMPR2, Homo sapiens, UniProt Q13873)

SMILES	effect on	action	method	concentration	baseline	quantity	result
O=C(Cc1ccc(OCc2ccccc2)cc1)NC1(C(=O)O)CCN(C(=O)c2ccc(-c3cccc(Cl)c3)cc2)CC1	enzyme activity	inhibitor	–	10 µM	–	activity vs control	114%
CC(C)=CC1OC(C)(C)C2C=C3C(=O)C(Cl)=CC(O)C3C3C(O)C4OC4C(=O)C132 (stereo not shown)	cell-free assay	–	competition with immobilised ligand	10 µM	–	remaining binding	77%
CN1CCN(Cc2ccc(NC(=O)c3cccc(C#Cc4cnc(N)c5ncccc45)c3)cc2C(F)(F)F)CC1	cell-free assay	–	competition with immobilised ligand	50 nM	–	remaining binding	80%
COc1ccc(NC(=O)Nc2ccc3c(c2)C(=O)N(C(C)CO)CC(C)C(CN(C)Cc2ccc4c(c2)OCO4)O3)cc1 (stereo not shown)	binding	–	competition with immobilised ligand	10 µM	–	remaining binding	100%
CNC(=O)C1CCN(c2cc(C)c(F)cc2NC(=O)c2ccc(-c3cc(O)ccc3C)c(C)c2)CC1	binding	–	competition with immobilised ligand	1 µM	–	remaining binding	90%
CNC1C[S+]2CC[S+]3CC[S+](C1)[Ru-4]321([N]=C=S)[n]2c3ccc(OC)cc3c3c4c(c5cc(F)c[n+]1c5c32)C(=O)NC4=O (stereo not shown)	–	–	KinomeScan	0.1 µM	untreated	remaining binding	100%
COc1c(Cl)cccc1Nc1c(-c2ccncc2C#C[C@@]2(C)CCCN2C(=O)/C=C/CN(C)C)[nH]c2c1C(=O)NCC2	cell-free assay	–	competition with immobilised ligand	3 µM	–	remaining binding	91%
NC(=O)C[C@H]1CCc2sc3ncnc(O[C@H]4CC[C@H](N5CCOCC5)CC4)c3c21	enzyme activity	inhibitor	–	10 µM	–	inhibition	17%
Nc1ncc2c(n1)-c1c([nH]c3ccc(C4=CCOCC4)cc13)CCC2	binding	–	competition with immobilised ligand	1 µM	–	remaining binding	72%
CNC(=O)C[C@H](Cc1ccc(C#N)cc1)NC(=O)c1cc(-c2ccc(CN[C@H](C)c3ccc(C)cc3)o2)ccc1Cl	enzyme activity	inhibitor	–	1 µM	–	activity vs control	98%
C=CC(=O)N1Cc2nc(-c3cc(-c4cc(Cl)cnc4Cl)c(F)cc3F)n(-c3ccncn3)c2C1	cell-free assay	–	–	1 µM	–	inhibition	-1.4%
Cc1cnc2nc1Nc1cccc(c1)COC/C=C/COCc1cc(ccc1OCCN1CCOCC1)N2	binding	–	–	0.1 µM	–	remaining binding	90%
COc1cc(Nc2nccc(-c3cnn4nc(OC)ccc34)n2)cc(C(F)(F)F)c1	binding	–	competition with immobilised ligand	1 µM	–	remaining binding	77%

Some of these lines once more:
SMILES	effect on	action	method	concentration	baseline	quantity	result
COc1ccc(NC(=O)Nc2ccc3c(c2)C(=O)N(C(C)CO)CC(C)C(CN(C)Cc2ccc4c(c2)OCO4)O3)cc1 (stereo not shown)	binding	–	competition with immobilised ligand	10 µM	–	remaining binding	100%
Cc1cnc2nc1Nc1cccc(c1)COC/C=C/COCc1cc(ccc1OCCN1CCOCC1)N2	binding	–	–	0.1 µM	–	remaining binding	90%
